Experimental data from different studies.
Each numbered part is a random draw from the data of one study; scales do not carry over between parts. Substitutions count along the parent as printed.

Set 1
Target: Histone acetyltransferase KAT6A, both winged helices, GST fusion (KAT6A, Homo sapiens, UniProt Q92794, residues 1-181)
Technique: protein binding microarray
Form: double-stranded DNA, one strand shown
Matrix: in vitro
Tested at: not given
Setting: 8-mer, flanks averaged, mean of 2 arrays, mostly near background
Reference: not given
Direction: higher = stronger binding
Construct (chain): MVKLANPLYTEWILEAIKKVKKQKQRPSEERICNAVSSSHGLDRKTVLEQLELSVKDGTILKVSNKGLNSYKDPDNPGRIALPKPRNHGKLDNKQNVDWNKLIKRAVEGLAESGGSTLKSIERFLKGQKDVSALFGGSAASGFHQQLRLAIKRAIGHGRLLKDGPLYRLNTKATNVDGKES
Sequence | E-score
AGCGATCG | 0.122
AATTCCCA | -0.31
CCGGAGTA | 0.129
AAAGGGAC | -0.0571
ATCTCTCA | -0.096
CCCTGGTC | -0.0709
GAGCCTAC | -0.104
AGAAAAAA | -0.0928
TAACTTCA | -0.0979
GCAAACGA | -0.0713
AGGCCTAC | -0.0525
AGAGTCTC | -0.195
CAGTTATC | 0.00458
ACCAGCAT | -0.217
CCCAATTC | -0.279
ATCTTGGG | -0.103
AGCTCGTC | -0.0755
CCAAGTAC | 0.0142
GCCGATAA | 0.13
AATGGTAG | -0.131
CCTTACCC | 0.0288
GACTAAAC | -0.00445
ATAAGCGA | 0.0578
TCTCCGAA | 0.0496
ACCTGTGA | -0.0731

Set 2
Target: RING finger protein unkempt homolog, zinc fingers 1-6, GST-SBP tag (UNK, Homo sapiens, UniProt Q9C0B0, residues 30-357)
Chain of UniProt Q9C0B0 (30-357, looked up): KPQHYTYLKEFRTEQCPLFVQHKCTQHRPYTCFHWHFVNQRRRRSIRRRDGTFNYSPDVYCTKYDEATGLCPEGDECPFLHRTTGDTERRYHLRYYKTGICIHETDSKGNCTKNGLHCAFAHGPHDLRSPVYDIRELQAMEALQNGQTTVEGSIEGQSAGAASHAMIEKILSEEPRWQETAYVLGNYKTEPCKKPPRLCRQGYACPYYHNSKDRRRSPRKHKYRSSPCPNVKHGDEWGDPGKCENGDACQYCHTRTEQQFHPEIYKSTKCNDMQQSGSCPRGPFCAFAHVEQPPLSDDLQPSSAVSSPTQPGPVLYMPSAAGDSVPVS
Technique: RNA Bind-n-Seq
Form: RNA
Matrix: in vitro
Tested at: not given
Setting: RNA with constant flanks, human-mouse chimeric sites, ends assumed
Reference: input RNA pool
Direction: higher = stronger binding
Sequence | bound/input enrichment [ratio]
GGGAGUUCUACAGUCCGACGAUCACUCAGAGAUUAUAUUCCCAAAGUGCUGGGAGUAAAGGUGUGGCCACCACACCUAACUUGAUGGAUAUUUUAUAAAGUUAAUAUGAAUCUUCCUGUUCGUCCAGGGAAGAAAGAUUUGUUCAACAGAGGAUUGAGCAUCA | 0.511
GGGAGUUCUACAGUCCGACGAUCGAAACAUUUAAAUUUAAAGAAGCUGUUGUUUUAGGGAGCACGGACUUUCUAGAAGAUGAUAUAGAGAAAAUUGUAGAAGAACUGGGGAAAGAGUAUAAGGGCAACGCCUACCAUCUGAUGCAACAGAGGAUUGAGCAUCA | 1.82
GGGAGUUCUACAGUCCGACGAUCAUCCCAAUUAUGGACACCGGUGAAAACCCAGAGGUGCCCUUCCCCCGGGACAUGAUUGACUUAGAGGCCAAUUUUGAGAAGAUUGAAAAUGAACUGAAGGAAAUCAACACAAACCAGGAACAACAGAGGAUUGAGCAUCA | 0.168
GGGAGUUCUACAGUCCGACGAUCGAAAGAGAACUAAAGCAACUAAUAGAGAAGAGGAUUGGGCAAAGAGAUUUCAUAGAGAAACUAGGAUUUAUUAGCAAACAUGAGUUAUAUUCCAGAGCGUCUCAGAAACCCCAGCCAAACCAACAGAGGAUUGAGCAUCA | 3.52
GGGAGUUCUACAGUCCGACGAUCUAAAUUAGGGCUGCCGUCCGUUCUCACUCCCUGGGCUGCGGAAAGCCAGAAGAUUUUAUCUAGCUUAUACAAGGCUGCUGGAGCUUGCUCUUUUUUUCCACGAGGGUGUUUUUGGCUGCACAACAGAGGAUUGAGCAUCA | 0.427
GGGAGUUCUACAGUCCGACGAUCUUGAAAACUGAUUCAAGCAAGUUUGAAUAUCACAAUGUUAGCUUUCUAAUUCCAUAAAAGUACUUGGUUUUUACAGUUUAUAAUCUGACAUCACCCCAGCGCCAUUUAGAUCAGCUUACUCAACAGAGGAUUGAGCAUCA | 1.39
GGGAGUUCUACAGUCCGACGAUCGUGACUGGUGUUAAGAUUUCCCCUCAGAAAAGAACUGCAGUAGUCACCAUAAUUCCAUCUGUGGUGAGUGCCAGUCAGAUUGUGGAGCUGGUCCCAGACCUCAGUUUAGACAUGGGAACUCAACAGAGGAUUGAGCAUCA | 0.271
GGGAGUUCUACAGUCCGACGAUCAAAGCCCAAGUAUUUUGAAAAAACUCGAACAGAUUUGACAAGGGUAGCCAGCUUGGAGUCUAGCAAUUUGCCAAUGUUGCUUACCAACUGGGGGCUUGUUUUUCUUUUCUUCUUUCAAAUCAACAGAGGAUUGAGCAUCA | 0.212
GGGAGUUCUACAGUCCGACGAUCGGCUGCUGGUGACUGUCCUGGAGUGGCUGGAGUUCCCGCCGGAGCGCGGCCAGACUAAUUUUAGAAAAUGCCAAGUAGGAAGUUUGUCGAUGGUGAAGUGGUAAGAGGCCGAUGGCCUGGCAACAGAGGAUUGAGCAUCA | 3.12
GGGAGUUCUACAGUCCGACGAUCUAUAUCACCAAUGUCCUACAAAAUCCUGACUUGGCUCUGAGAAUGGCUGUGCGGAACAACUUAGCCGGUGCUGAAGAACUCUUUGCCCGGAAAUUUAAUGCUCUCUUUGCCCAGGGAAACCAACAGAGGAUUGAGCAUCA | 0.356
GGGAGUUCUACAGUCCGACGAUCCUGGCCUUCUGAGCAUCAGGGGCCUCCUUUCGUAUAGUCACUGCUUCUGCAUCAGAUACUUUCAGCUGCAACUCCCUACUGGGUGGGGCACCUAUCUCAGGCAGAAGGUUUUGGUACCCUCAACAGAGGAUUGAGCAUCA | 0.128

Set 3
Target: RNA binding protein fox-1 homolog 2, RRM domain, GST-SBP tag (RBFOX2, Homo sapiens, UniProt O43251-10, residues 100-194)
Technique: RNA Bind-n-Seq
Form: RNA
Matrix: in vitro
Tested at: 365 nM
Setting: natural RNA segment, single round, ends assumed
Reference: no-protein control
Direction: higher = stronger binding
Residues (chain): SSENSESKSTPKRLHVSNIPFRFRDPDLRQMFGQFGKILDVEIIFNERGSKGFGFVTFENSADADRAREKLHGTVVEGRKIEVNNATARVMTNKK
Sequence | RBNS enrichment (R)
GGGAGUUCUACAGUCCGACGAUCCUCUCUACCCUGAAAUGGGUGAAGGAGUCUUGUUCAGUUGUUUUAUAAGAGGUGCUCACAGAAAGAAUAAGGGAAACUUCCCUGAUACCUUAAUGCAAAAUCAAAAUUAUUGGAAUUCUCGGGUGCCAA | 0.286
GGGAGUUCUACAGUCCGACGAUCUGCAAGAUUUUAAAAGUUUUGUUCUUUUAUAGACUGAUUUAGAAAAACAAAUGAUUAGUUAAAAAAAGAAAAUAUACAUUUGUUGGUAACUAAUGUUAUUUUUUAAAACCUGGAAUUCUCGGGUGCCAA | 0.668
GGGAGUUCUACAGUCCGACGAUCUAAUUAGAAGCAUCUCCAGGCCUGGAGAAAAUUUGAACUUAUGGUCCCGGGCUGCUUUGUAGUGAGCCUGUUUCCACUGCUCUGGUAGCUGAGCCAGGCUAUGAGGAAACUGGAAUUCUCGGGUGCCAA | 0.548
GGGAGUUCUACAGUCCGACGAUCAAGGUGGCAGGGCUGUGAUGGCCCUUCCUACACACCUGGACUCUGCCUACCCACUCCAGGACUCUCUCCCUCCCCCCAACCCCAUCCCCAUCUCUGAGCUAUGGGGCAAUUGGAAUUCUCGGGUGCCAA | 0.343
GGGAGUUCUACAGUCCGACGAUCUGGGCUGGGAACUGACAGAGGAGCCUGCUGGGCUAGGAGUGGGGGACACUGGCCUCUUAGUGCCCGGCUGCCGAGCUCUUGGCCUUGUCCCCUGGGGCAUCUCUGUCCCCUGGAAUUCUCGGGUGCCAA | 0.273
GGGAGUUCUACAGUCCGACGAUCGCUUCCACCAUCCAGGUGCACCACUGAAGUGAGGACACACCGGAGCCAGGCGCCUGCUCAUGUUGAAGUGCGCUGUUCACACCCGCUCCGGAGAGCACCCCAGCAGCAUCUGGAAUUCUCGGGUGCCAA | 0.352
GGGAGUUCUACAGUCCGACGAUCCCCCCACCUUCCCCAACCCUUCCUCAAGAGCUGAAGGGAUCCCAGCCCCUAGGUGGGCAGAGGCAGACCCUCCCCAGAGCUCCUUAGGAAGAAGACAGACUGGUUCAUUGUGGAAUUCUCGGGUGCCAA | 0.558
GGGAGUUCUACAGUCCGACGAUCUAUAUUAGAGGGACUGGGUUUAAAAAAAAUGAUAUAGGGUAGAAAAUAAGAGCUAUACUUACCAGAGUCAAUAGAUCACUGGCUUCUCUUUGCUGUCAAAAGCUACAUUGUGGAAUUCUCGGGUGCCAA | 0.439
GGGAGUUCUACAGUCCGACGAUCAGCACCUCCCAGAAAGCUGUGAGCGUGGUUUGGUUCAGAACUCCAGCACCCUGUGCCAGGCACUGACUCAAGCAAGAGGAACCUGGCCUGAUCCCUGACUUUGGGGAACCUGGAAUUCUCGGGUGCCAA | 0.291
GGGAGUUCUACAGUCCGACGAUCGAAAGGCGUCACUCUGCCAGAGUGUGACUUUUUACAGAUUAAAUAAAGCUGUAUAUGUCUCAUUGUUCCCGGCUGCUGGUGUUAUUUCUCCAAAGCGACUCUCCAAGGCUUGGAAUUCUCGGGUGCCAA | 0.226
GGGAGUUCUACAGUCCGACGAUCUUUGUAUUUAUUGUGCCUUACAUAGGAAGGAAGGGACUCAACUGAAUCCCUCCUCCCUCUAAACAGUCCCCCAGAAAACAGGCUGGUGGCCAUGUGCUUUGCAUCUUUCUUGGAAUUCUCGGGUGCCAA | 0.629
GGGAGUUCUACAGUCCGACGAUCGGGGGCAGGGCCUUUGUCUGUCUCAUCUCUGUAUUCCCAAAUGCCUAACAGUACAGAGCCAUGACUCAAUAAAUACAUGUUAAAUGGAUGAAUGAAUUCCUCUGAAACUCUGGAAUUCUCGGGUGCCAA | 0.524

Set 4
Target: Sal-like protein 4, full length isoform B (SALL4, Homo sapiens, UniProt Q9UJQ4-2, residues 1-616)
Technique: universal PBM
Form: double-stranded DNA, one strand shown
Matrix: in vitro
Tested at: not given
Setting: 8-mer, flanks averaged, mean of replicates
Direction: higher = stronger binding
Sequence | E-score
CAGTTGCG | -0.15
GGTCAGAC | -0.216
CTCCTTGC | -0.13
CAGAGCGC | -0.331
ATGCGCCC | -0.236
AAACATTA | 0.33
GAATAACA | 0.196
CTGTTCAC | -0.148
AACGCGCT | -0.219
GGACACAC | -0.218
AGCAACTA | 0.214
ACTGAGGG | -0.235
GTCTGTTA | 0.161
CAGTGTGA | -0.00139
CTATGGTA | 0.0421
TAAAGTCA | 0.173
GCTGCTAC | -0.236
CATGTGTA | 0.234
GCCTATGA | 0.0905
CTATACAA | 0.285
TGGGCCCA | -0.308
TCACACAA | 0.144
CCTCCAGA | 0.0361
ATTCTCAC | 0.116
TACTCGCA | -0.0116

Set 5
Target: CCNE1, cyclin fold, Cln2 fusion (human)
Technique: yeast growth competition, sequencing
Matrix: yeast
Setting: strong parent motif
Reference: not given
Direction: higher = stronger binding
Starting sequence: PKN2 docking peptide (human); VSAVRKLDFSDTM
Variant | normalised enrichment score
L7T | 0.133
L7I | 3.53
S2H | 5.49
D11F | 4.78
A3R | 0.296
T12D | 5.42
V4T | 2.29
V4Y | 1.88
K6V | 5.18
A3Y | 4.82
S10C | 5
V4I | 4.7
K6L | 2.76
S2C | 4.95
F9V | 0.214
R5K | 2.82
S10I | 4.09
V4P | 0.717
D8S | 5.49
T12S | 5.66
V4D | 0.314

A few entries again (set 4):
Sequence | E-score
CCTCCAGA | 0.0361
CTGTTCAC | -0.148
CATGTGTA | 0.234
CTATACAA | 0.285
ACTGAGGG | -0.235
ATGCGCCC | -0.236
GGTCAGAC | -0.216
GCTGCTAC | -0.236
AACGCGCT | -0.219
CAGAGCGC | -0.331
CAGTGTGA | -0.00139
TGGGCCCA | -0.308
CTCCTTGC | -0.13
TACTCGCA | -0.0116
TAAAGTCA | 0.173
